Earlier results as cited in several papers.
Numbers after ± are the reported error. In brackets after ≈: the same amount, converted by molar mass.
Chain of UniProt Q9UBF8 (whole entry, looked up): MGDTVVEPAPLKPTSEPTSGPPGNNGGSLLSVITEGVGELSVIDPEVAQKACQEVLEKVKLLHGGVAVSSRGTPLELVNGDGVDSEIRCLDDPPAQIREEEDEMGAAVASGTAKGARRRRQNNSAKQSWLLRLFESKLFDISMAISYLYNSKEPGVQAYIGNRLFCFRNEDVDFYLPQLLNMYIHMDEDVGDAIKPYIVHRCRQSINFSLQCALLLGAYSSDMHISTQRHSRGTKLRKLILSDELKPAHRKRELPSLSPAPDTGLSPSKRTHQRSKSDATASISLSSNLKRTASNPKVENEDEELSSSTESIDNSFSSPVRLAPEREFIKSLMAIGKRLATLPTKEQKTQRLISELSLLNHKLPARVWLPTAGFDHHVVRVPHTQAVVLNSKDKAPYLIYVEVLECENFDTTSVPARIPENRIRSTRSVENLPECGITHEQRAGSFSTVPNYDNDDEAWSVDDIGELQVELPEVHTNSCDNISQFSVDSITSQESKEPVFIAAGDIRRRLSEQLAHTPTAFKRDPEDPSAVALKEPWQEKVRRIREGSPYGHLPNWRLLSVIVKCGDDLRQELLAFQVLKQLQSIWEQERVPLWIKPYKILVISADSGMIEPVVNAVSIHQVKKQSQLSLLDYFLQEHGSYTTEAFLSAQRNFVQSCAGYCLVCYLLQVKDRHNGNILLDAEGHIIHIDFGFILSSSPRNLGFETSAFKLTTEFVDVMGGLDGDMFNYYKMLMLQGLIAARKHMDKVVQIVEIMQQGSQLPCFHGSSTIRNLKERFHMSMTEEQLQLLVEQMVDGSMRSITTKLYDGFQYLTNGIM
Chain of UniProt P04789 (whole entry, looked up): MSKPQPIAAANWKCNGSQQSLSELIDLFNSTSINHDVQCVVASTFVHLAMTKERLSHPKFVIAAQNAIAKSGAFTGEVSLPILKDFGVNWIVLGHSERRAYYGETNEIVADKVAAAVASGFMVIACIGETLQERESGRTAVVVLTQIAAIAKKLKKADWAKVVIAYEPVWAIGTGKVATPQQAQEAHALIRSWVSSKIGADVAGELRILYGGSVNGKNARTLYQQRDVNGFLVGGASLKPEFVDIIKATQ
Chain of UniProt P15207 (whole entry, looked up): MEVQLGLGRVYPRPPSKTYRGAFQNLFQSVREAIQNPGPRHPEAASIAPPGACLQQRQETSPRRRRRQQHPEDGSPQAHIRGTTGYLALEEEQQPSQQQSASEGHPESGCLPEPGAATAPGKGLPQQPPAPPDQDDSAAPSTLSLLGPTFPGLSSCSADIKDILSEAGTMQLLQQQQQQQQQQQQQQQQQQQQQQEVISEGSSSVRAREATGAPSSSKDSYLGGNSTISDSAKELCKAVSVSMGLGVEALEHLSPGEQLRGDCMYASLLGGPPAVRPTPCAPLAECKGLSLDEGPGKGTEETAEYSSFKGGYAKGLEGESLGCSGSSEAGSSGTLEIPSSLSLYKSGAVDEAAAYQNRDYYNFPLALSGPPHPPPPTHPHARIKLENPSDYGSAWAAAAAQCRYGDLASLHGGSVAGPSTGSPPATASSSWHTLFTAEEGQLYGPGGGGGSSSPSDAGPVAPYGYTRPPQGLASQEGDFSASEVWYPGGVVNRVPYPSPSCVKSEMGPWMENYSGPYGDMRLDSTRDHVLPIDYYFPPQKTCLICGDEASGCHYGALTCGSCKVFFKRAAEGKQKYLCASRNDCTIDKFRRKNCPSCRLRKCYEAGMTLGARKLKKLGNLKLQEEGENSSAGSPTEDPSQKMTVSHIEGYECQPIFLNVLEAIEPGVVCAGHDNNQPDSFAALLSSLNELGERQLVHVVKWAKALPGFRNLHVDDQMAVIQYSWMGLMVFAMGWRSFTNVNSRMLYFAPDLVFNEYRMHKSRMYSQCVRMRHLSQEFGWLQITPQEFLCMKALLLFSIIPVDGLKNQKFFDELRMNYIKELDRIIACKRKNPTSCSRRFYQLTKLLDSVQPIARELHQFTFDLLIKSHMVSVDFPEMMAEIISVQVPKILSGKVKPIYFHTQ
Chain of UniProt P22002 (whole entry, looked up): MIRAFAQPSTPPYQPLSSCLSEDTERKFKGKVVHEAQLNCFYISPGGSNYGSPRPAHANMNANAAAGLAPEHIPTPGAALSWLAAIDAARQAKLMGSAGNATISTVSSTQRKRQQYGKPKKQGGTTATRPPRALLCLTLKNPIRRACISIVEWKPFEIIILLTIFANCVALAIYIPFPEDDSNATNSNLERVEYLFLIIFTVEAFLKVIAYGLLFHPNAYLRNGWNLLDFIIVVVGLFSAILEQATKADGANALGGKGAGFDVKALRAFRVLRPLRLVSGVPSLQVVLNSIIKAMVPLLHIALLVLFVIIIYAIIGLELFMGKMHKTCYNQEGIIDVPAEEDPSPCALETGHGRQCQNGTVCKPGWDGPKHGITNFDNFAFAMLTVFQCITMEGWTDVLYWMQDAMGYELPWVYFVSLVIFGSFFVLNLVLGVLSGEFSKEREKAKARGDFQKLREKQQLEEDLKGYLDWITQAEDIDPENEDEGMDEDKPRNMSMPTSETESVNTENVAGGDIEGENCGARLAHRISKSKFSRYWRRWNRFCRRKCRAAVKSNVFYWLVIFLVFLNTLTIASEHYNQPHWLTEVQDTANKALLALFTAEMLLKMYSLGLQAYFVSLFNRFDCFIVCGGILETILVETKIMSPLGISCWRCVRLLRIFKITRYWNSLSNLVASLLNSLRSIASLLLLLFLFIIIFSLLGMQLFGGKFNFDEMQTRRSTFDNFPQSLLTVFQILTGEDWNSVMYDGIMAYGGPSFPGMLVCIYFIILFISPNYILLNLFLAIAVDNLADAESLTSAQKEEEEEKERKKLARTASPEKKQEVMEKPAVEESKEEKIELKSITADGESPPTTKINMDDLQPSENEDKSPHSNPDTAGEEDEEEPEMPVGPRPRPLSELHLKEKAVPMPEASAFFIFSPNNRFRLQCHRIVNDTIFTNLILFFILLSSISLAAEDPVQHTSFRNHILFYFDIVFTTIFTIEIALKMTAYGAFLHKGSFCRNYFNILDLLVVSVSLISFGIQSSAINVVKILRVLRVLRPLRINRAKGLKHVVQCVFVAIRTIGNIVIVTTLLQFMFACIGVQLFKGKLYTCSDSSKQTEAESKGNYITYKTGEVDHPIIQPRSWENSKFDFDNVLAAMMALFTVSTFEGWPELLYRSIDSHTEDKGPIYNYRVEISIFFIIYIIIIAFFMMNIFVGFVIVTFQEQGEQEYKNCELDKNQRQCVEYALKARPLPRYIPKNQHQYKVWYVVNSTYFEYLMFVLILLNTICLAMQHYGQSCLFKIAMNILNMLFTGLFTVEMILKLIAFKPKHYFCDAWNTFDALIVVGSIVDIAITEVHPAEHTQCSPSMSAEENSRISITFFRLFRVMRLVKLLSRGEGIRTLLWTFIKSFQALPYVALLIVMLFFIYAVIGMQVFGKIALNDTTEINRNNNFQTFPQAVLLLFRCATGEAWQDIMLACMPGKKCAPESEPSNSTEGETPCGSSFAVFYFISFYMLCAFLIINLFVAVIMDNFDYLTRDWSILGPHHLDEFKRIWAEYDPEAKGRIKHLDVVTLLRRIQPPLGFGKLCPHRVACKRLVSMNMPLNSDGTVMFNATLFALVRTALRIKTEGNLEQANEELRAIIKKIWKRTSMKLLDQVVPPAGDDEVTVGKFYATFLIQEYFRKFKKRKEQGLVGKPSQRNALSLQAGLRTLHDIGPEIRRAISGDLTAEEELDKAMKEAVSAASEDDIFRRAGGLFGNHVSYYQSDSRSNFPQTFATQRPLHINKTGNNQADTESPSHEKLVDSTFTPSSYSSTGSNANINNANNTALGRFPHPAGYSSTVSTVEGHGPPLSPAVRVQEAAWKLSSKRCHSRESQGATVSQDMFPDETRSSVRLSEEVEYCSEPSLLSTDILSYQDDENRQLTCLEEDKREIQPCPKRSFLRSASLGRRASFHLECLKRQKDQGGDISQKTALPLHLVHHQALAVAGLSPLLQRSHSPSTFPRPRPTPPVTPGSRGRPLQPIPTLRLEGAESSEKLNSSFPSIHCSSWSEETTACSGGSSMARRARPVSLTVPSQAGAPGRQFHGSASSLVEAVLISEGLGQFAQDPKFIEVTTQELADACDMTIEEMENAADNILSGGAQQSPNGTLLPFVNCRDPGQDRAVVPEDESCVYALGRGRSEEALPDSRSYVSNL

O=C[C@H](O)COP(=O)(O)O
Km (Triosephosphate isomerase, glycosomal (Trypanosoma brucei brucei, UniProt P04789); substrate; pH 4.9): 3.8 mM

NCC[C@H](O)C(=O)N[C@@H]1C[C@H](N)[C@@H](O[C@H]2O[C@H](CN)[C@@H](O)[C@H](O)[C@H]2O)[C@H](O)[C@H]1O[C@H]1O[C@H](CO)[C@@H](O)[C@H](N)[C@H]1O
MIC (Escherichia coli; bacterial growth; colistin-resistant): 2 µg/mL (≈ 3.42 µM)

CC(O)CN1CCN(CC(=O)[O-])CCN(CC(=O)[O-])CCN(CC(=O)[O-])CC1.[Gd+3] (stereo not drawn)
relaxivity r1 (saline; 310 K, 1.41 T): 3.1 mM⁻¹ s⁻¹

CC(=O)c1c(O)c(C)c(O)c2c1OC1=CC(=O)C(C(C)=O)C(=O)C12C (stereo not drawn)
Ki (glutathione S-transferase; inhibitor): 12000 ± 1900 nM

CCOC(=O)C1=C(C)NC(C)=C(C(=O)OC)C1c1cccc([N+](=O)[O-])c1 (stereo not drawn)
Ki (Cacna1c (Rattus norvegicus, UniProt P22002)): 0.46 nM

COC(=O)[C@@H]1C[C@H](OC(C)=O)C(=O)[C@H]2[C@@]1(C)CC[C@H]1C(=O)O[C@H](c3ccoc3)C[C@]21C
Ki (kappa opioid receptor Y139A): 53.9 ± 13.9 nM

CCCC(C(=O)c1ccc2c(c1)OCO2)N1CCCC1.Cl (racemic)
relative potency (dopamine transporter, rat; inhibitor; rat brain tissue; reference: cocaine): 50 fold

O=C(Nc1ccc(N(Cc2ccsc2)C(=O)Cn2nnc3ccccc32)cc1)C1CC1
inhibition (main protease (Mpro); 20 µM): 69%

C[C@@H](O)[C@H]1C(=O)N2C(C(=O)O)=C(S[C@@H]3CN[C@H](C(=O)N(C)C)C3)[C@H](C)[C@H]12
MIC (Escherichia coli; AR0346 colistin resistant): < 0.12 µg/mL

Nc1ccn([C@@H]2O[C@H](CO)[C@@H](O)C2(F)F)c(=O)n1
1-year survival rate (metastatic pancreatic cancer patients; dose not given): 18%

O=C(O)c1cn(C2CC2)c2cc(N3CCNCC3)c(F)cc2c1=O
MIC (Escherichia coli; bacterial growth; colistin-resistant): > 8 µg/mL

C=C[C@@H]1C[C@]1(NC(=O)[C@@H]1C[C@@H]2CN1C(=O)[C@H](C(C)(C)C)NC(=O)O[C@@H]1C[C@H]1CCCCCc1nc3ccc(OC)cc3nc1O2)C(=O)NS(=O)(=O)C1CC1
efflux ratio (rat P-glycoprotein; LLC-PK1 transfected with rat P-glycoprotein; 1 µM; reference: B-A over A-B permeability): ~30

Cc1ccncc1NC(=O)Cc1cc(Cl)cc(O[C@@H]2CC(=O)N2)c1
inhibition (main protease (Mpro); 20 µM): 94.5%

NCCc1ccc(Oc2ccc(O)cc2)c(I)c1
inhibition ([3H]norepinephrine uptake, inhibitor; rat brain synaptosomes; 10 µM): 72.1%

O=C(Nc1cnccc1CO)[C@@H]1CCOc2ccc(Cl)cc21
inhibition (main protease (Mpro); 20 µM): 64.5%

CCCCCOc1ccc(-c2ccc(-c3ccc(C(=O)N[C@H]4C[C@@H](O)[C@@H](O)NC(=O)[C@@H]5[C@@H](O)[C@@H](C)CN5C(=O)[C@H]([C@@H](C)O)NC(=O)[C@H]([C@H](O)[C@@H](O)c5ccc(O)cc5)NC(=O)[C@@H]5C[C@@H](O)CN5C(=O)[C@H]([C@@H](C)O)NC4=O)cc3)cc2)cc1
mean clearance (typical invasive candidiasis patient; dose not given, male 70 kg): 1.3 L/h

COc1ccc(C2C(C#N)=C(N)OC3=C2C(=O)CC(c2cccc4ccccc24)C3)cc1 (stereo not drawn)
IC50 (EAAT1 (SLC1A3); inhibitor): 660 nM

Nc1ncc(-c2nc(N3CCOCC3)nc(N3CCOCC3)n2)c(C(F)F)n1
remaining binding (PI4KB (Homo sapiens, UniProt Q9UBF8); KinomeScan competition binding; 10 µM): 75%

Cc1ccncc1NC(=O)C(C)(C)c1cccc(Cl)c1
inhibition (main protease (Mpro); 20 µM): 49.3%

COc1ccc2c(c1)c(CC(=O)O)c(C)n2C(=O)c1ccc(Cl)cc1
IC50 (prostaglandin E synthase 2 (PTGES2); inhibitor): 750 nM

O=c1c(-c2ccc(O)cc2)coc2cc(O)cc(O)c12
activity class (Androgen receptor (Ar, Rattus norvegicus, UniProt P15207); concentration not given): inactive

COc1cccc2c(NCc3ccccc3)nc(-n3c(N)nc4ccccc43)nc12
IC50 (p97 (VCP); inhibitor): 100 nM

COc1cc(Cl)cc(CC(=O)Nc2cnccc2C)c1
inhibition (main protease (Mpro); 50 µM): 48.3%

CCCCCc1cc(O)c2c(c1)OC(C)(C)[C@@H]1CCC(C)=C[C@@H]21
intraocular pressure reduction (human; inhaled, dose not given, marijuana smoking): ~40%
